# Measured values gathered from unrelated publications.
# Parts stem from different laboratories: compare values within a part only. Substitutions count along the parent as printed.

# Set 1
# Target: CCNA1, cyclin fold, Cln2 fusion (human)
# Method: yeast growth competition, sequencing
# Sample: yeast
# Setting: weak parent motif
# Baseline: not given
# Direction: higher = stronger binding
# Starting sequence: E2F1 docking peptide (human); PPVKRRLDLETDH; partner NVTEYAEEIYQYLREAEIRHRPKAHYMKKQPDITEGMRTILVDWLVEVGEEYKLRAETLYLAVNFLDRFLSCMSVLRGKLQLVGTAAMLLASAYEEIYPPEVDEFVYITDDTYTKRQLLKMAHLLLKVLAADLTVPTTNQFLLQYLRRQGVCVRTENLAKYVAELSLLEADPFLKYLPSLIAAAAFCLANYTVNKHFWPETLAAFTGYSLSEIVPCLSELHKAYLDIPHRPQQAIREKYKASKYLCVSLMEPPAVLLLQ
Variant,normalised enrichment score
E10D,0.922
T11Q,0.284
V3D,0.189
V3W,0.401
R6M,0.545
H13V,0.664
T11F,0.807
D8P,0.238

# Set 2
# Target: Sal-like protein 4, full length isoform B (SALL4, Homo sapiens, UniProt Q9UJQ4-2, residues 1-616)
# Method: universal PBM
# Form: double-stranded DNA, one strand shown
# Sample: in vitro
# Tested at: not given
# Setting: 8-mer, flanks averaged, mean of replicates
# Direction: higher = stronger binding
Sequence,E-score
CACGAAAC,-0.0332
TTGGCAAA,0.184
AATCCAAG,0.046
ACGAACCC,-0.232
CTAAATTC,0.122
ATCACAAT,0.219

# Set 3
# Target: XBP1, bZIP domain (human)
# Method: DHFR protein complementation
# Sample: yeast
# Setting: single substitutions, most at no-binding floor
# Baseline: wild-type JUN-FOS pair
# Direction: higher = stronger binding
# Starting sequence: JUN, bZIP domain (human); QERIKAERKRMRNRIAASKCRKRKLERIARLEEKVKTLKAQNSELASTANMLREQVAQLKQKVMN; partner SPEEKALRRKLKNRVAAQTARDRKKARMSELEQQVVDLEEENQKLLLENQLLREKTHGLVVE
Variant,binding fitness
V35C,-1.39 natural log
M51I,-0.693 natural log
L38C,-1.5 natural log
A46F,-1.22 natural log
Q55V,-0.844 natural log
R53M,-1.47 natural log
E54A,-1.03 natural log
L52D,-1.48 natural log
A49N,0.114 natural log

# Other studies, line by line
Substance,target,assay,system,conditions,scale,quantity,value
"PhoQ, residues 284 288 289 292 302 303 SLANIV","PhoP, residues 12 14 15 18 19 SEGLL (Escherichia coli, UniProt P23836)","Sort-seq, refers to: YFP reporter",E. coli,"PhoQ-PhoP variant library, together with: 10 µM Mg2+","baseline: high Mg2+ state, higher = stronger signaling",fold induction,5.5

# Some of these lines once more (set 1):
Variant,normalised enrichment score
H13V,0.664
